Results pooled from the literature.
Each line is one published result; not all experiments were run side by side. ± marks the error that the study gave.

| Compound | organism | test | test system | conditions | how to read | measurement | value |
| --- | --- | --- | --- | --- | --- | --- | --- |
| CC[C@H](C)[C@H](NC(=O)[C@H](CCCCN)NC(=O)[C@H](CCCCN)NC(=O)[C@H](CC(C)C)NC(=O)[C@H](CCCCN)NC(=O)[C@H](CCC(=O)O)NC(=O)[C@H](CCCCN)NC(=O)[C@@H](NC(=O)[C@H](CCCCN)NC(=O)[C@H](CC(N)=O)NC(=O)[C@H](CCCNC(=N)N)NC(=O)[C@H](Cc1ccccc1)NC(=O)[C@H](CCCCN)NC(=O)[C@H](CCCNC(=N)N)NC(=O)[C@H](CC(C)C)NC(=O)[C@H](CCCNC(=N)N)NC(=O)[C@H](CCCCN)NC(=O)[C@H](CCCNC(=N)N)NC(=O)[C@H](CC(C)C)NC(=O)[C@@H](N)CCCNC(=N)N)[C@@H](C)CC)C(=O)NCC(=O)N[C@@H](CCC(N)=O)C(=O)N[C@@H](CCCCN)C(=O)N[C@H](C(=O)N[C@@H](CCC(N)=O)C(=O)NCC(=O)N[C@@H](Cc1ccccc1)C(=O)N[C@H](C(=O)N1CCC[C@H]1C(=O)N[C@@H](CCCCN)C(=O)N[C@@H](CC(C)C)C(=O)N[C@@H](CCC(N)=O)C(=O)N1CCC[C@H]1C(=O)N[C@@H](CO)C(=O)N[C@@H](CCCCN)C(=O)N[C@@H](CCC(N)=O)C(=O)N[C@@H](CO)C(=O)O)C(C)C)[C@@H](C)CC | Stenotrophomonas maltophilia | inhibition zone | CGMCC 1.179 | LB agar, overnight | – | lethal concentration | 10.7 µM |
| CCCCn1c2ccccc2c2ccnc(-c3ccccc3Cl)c21 | Echinococcus granulosus sensu stricto | – | protoscoleces | 48 h | – | LC50 | 61.2 ± 5.29 µM |
| [Cl-].[Cl-].[Mn+2].c1ccc(CN2CCCNCCN(Cc3ccccc3)CCCNCC2)cc1 | Leishmania donovani | parasite growth, resazurin | – | 72 h, amastigote | – | IC90 | > 19 µM |
| COc1ccc(-c2oc3ccc(-c4cc(OC)c(OC)c(OC)c4)cc3c2C#CC2(O)CCCCC2)cc1 | hepatitis C virus | viral entry, HCV pseudoparticle entry | genotype 1a | 10 µM | relative to: DMSO | remaining activity | 69.3% |
| CC(=O)Oc1ccc(Cn2ccc(=O)[nH]c2=O)cc1C1OC(c2cccc(Cl)c2)=NN1C(C)=O (stereo not drawn) | varicella-zoster virus | plaque formation, plaque reduction | HEL fibroblasts, TK- strain 07-1 | – | – | EC50 | > 20 µM |
| CCn1c(-c2ccc(-c3ccc(F)cc3)cc2)c(-c2ccc(-c3ccc(F)cc3)cc2)n(CC)c1=[Se+][Au-][P+](CC)(CC)CC.[Cl-] | Acinetobacter baumannii | – | carbapenem-resistant | 10, 20, 40 µM, 2 h | relative to: untreated | malondialdehyde content | increased |
| CC(=O)[O-].F[P-](F)(F)(F)(F)F.[Ni+2].c1ccc(CN2CCN3CCN(CC2)CCN(Cc2ccccc2)CC3)cc1 | Leishmania donovani | parasite growth, resazurin | – | 72 h, promastigote | – | IC50 | 11 µM |
| CC(CCC(=O)[O-])C1CCC2C3CCC4CC(O)CCC4(C)C3CC(O)C12C.C[N+](C)(C)CC(O)CC(=O)O (stereo not drawn) | Shigella flexneri | – | ATCC 9199 | 1 mg per disc, 18 to 24 h, 37 °C | – | antibacterial activity | inactive |
| [Cl-].[Cl-].[Ni+2].c1ccc(CN2CCNCCN(Cc3ccccc3)CCNCC2)cc1 | Leishmania donovani | parasite growth, resazurin | – | 72 h, promastigote | – | IC90 | > 20 µM |
| Cc1ccc2ccc3ccc(C)nc3c2n1.Cc1ccc2ccc3ccc(C)nc3c2n1.O.[Cl-].[Cl-].[Cl-].[Yb+3] | Enterococcus | – | vancomycin-resistant | 5 mg/mL | – | zone of inhibition | 9 mm |
| CC1(C)C(C=C(Cl)Cl)C1C(=O)OCc1ccccc1 (stereo not drawn) | Anopheles funestus | glazed tile contact bioassay | FUMOZ-R resistant | 24 h | relative to: LC50 FUMOZ-R over LC50 FANG | resistance ratio | 3.77 |
| S=C(NCc1ccccn1)NCc1ccccn1 | Agrobacterium tumefaciens | – | – | 30 µg/mL | – | inhibition zone diameter | 26 mm |

For quick reference, copied from above:
| Compound | organism | test | test system | conditions | how to read | measurement | value |
| --- | --- | --- | --- | --- | --- | --- | --- |
| COc1ccc(-c2oc3ccc(-c4cc(OC)c(OC)c(OC)c4)cc3c2C#CC2(O)CCCCC2)cc1 | hepatitis C virus | viral entry, HCV pseudoparticle entry | genotype 1a | 10 µM | relative to: DMSO | remaining activity | 69.3% |
| CC(=O)Oc1ccc(Cn2ccc(=O)[nH]c2=O)cc1C1OC(c2cccc(Cl)c2)=NN1C(C)=O (stereo not drawn) | varicella-zoster virus | plaque formation, plaque reduction | HEL fibroblasts, TK- strain 07-1 | – | – | EC50 | > 20 µM |
